Assay results pooled from the literature.
Compare with care: the assays were run in different laboratories. ± gives the spread as reported.
FURIN: Furin (FURIN, Homo sapiens, UniProt P09958)

Amino acid sequences for entries named in this document (tags omitted). Residues count along the entry.
UniProt P09958, whole entry, looked up: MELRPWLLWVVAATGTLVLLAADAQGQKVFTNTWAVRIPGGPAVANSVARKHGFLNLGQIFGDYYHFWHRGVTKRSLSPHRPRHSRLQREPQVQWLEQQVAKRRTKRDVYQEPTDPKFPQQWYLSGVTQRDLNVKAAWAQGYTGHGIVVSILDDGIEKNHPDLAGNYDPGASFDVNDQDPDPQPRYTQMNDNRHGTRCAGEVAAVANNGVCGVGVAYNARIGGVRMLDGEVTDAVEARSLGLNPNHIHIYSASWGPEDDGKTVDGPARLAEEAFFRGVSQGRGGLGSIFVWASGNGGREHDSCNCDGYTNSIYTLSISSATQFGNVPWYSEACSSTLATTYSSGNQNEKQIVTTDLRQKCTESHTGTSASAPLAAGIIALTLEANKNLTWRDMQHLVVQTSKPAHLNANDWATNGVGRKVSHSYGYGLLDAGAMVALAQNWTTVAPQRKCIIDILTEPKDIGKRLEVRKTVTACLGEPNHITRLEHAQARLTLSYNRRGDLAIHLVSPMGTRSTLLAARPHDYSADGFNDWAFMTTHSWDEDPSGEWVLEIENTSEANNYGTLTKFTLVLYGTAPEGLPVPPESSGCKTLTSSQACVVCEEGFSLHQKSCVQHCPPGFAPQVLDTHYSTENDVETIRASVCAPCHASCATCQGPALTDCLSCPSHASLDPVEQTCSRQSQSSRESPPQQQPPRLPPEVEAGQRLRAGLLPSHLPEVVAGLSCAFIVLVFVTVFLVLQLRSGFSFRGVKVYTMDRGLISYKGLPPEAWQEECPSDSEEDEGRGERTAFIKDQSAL
UniProt P09958, 108-715 limits assumed: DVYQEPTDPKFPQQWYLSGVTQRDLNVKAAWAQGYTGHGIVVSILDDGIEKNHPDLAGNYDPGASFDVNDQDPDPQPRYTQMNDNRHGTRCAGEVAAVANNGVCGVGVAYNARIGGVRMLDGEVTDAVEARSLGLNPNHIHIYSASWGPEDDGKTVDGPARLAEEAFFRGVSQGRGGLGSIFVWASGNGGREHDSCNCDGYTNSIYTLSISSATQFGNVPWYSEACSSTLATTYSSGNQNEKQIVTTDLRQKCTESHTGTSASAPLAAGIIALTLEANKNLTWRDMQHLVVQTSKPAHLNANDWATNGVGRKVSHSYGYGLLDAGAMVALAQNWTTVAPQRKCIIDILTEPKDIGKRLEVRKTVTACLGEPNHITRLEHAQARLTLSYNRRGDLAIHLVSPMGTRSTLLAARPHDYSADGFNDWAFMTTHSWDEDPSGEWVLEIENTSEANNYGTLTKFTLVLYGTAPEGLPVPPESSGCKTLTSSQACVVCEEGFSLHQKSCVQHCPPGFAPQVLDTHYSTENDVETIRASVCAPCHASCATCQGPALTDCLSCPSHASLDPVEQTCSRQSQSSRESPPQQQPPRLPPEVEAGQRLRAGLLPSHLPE
UniProt P42574, whole entry, looked up: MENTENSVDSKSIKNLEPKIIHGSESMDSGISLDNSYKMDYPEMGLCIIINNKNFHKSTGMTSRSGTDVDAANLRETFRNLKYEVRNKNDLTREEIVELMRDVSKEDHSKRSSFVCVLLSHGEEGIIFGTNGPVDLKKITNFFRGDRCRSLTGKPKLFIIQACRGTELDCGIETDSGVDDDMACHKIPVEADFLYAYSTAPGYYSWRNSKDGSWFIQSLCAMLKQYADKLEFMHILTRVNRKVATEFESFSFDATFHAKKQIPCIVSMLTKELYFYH
UniProt P02708, 21-457 limits assumed: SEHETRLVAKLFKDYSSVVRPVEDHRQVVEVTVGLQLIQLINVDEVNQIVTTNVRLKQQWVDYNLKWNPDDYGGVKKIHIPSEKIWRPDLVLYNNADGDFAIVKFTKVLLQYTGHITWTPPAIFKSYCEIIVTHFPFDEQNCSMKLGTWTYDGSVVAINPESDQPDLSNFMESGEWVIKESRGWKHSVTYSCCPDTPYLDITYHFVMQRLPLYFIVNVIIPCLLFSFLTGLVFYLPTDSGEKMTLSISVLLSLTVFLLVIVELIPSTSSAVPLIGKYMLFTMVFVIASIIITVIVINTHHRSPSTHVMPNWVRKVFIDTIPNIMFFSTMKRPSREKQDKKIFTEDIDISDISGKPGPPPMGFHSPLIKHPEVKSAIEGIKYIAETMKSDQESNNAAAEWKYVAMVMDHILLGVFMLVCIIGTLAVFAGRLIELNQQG
UniProt Q04844, 21-493 limits assumed: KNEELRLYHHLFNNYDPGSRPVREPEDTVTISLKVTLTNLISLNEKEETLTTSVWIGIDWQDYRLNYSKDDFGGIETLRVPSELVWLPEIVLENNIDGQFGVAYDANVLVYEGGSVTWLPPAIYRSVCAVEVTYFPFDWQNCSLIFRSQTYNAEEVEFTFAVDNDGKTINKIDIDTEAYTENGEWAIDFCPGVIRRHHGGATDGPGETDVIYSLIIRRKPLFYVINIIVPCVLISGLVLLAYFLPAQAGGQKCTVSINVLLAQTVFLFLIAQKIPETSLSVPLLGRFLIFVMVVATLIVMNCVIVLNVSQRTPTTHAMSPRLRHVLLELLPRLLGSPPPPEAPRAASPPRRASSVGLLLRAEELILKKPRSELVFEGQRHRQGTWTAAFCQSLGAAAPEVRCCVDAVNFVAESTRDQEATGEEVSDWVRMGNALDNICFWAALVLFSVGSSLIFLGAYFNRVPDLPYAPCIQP
UniProt Q07001, 22-517 limits assumed: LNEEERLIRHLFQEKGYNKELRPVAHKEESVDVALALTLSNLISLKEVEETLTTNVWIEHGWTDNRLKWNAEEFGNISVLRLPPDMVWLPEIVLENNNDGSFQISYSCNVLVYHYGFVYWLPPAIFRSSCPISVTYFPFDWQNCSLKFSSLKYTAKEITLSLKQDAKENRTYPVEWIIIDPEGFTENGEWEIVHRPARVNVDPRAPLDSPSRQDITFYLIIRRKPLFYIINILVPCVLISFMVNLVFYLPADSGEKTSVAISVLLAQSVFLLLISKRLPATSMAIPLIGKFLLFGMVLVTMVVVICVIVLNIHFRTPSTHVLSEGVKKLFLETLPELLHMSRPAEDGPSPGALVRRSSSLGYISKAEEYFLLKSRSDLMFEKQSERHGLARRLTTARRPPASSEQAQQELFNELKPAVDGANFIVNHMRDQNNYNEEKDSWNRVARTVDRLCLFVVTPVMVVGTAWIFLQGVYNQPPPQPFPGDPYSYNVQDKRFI
UniProt P14867, 28-456 limits assumed: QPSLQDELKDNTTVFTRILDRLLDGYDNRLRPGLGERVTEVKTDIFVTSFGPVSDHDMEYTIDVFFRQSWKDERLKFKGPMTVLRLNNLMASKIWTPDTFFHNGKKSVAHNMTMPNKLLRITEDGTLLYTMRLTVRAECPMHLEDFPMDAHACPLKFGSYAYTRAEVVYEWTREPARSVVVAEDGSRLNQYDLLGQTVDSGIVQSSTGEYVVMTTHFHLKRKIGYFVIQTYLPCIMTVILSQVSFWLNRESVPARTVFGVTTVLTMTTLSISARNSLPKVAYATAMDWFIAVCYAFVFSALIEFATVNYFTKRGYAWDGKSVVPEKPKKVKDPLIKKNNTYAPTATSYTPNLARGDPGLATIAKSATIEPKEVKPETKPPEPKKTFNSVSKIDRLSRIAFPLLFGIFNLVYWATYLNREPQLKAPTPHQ
UniProt P18507, 40-475 limits assumed: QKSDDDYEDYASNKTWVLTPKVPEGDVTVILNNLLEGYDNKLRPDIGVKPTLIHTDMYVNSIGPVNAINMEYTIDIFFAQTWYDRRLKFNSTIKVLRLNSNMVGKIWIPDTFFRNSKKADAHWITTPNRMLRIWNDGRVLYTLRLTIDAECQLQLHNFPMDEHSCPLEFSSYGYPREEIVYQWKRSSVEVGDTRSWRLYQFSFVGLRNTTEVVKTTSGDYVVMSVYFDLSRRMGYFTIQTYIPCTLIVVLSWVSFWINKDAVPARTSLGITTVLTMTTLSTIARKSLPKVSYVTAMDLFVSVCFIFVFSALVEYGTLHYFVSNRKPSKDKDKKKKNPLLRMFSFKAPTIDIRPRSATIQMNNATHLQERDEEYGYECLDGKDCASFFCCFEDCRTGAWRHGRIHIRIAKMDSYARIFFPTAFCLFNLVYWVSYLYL
UniProt P28472, 26-473 limits assumed: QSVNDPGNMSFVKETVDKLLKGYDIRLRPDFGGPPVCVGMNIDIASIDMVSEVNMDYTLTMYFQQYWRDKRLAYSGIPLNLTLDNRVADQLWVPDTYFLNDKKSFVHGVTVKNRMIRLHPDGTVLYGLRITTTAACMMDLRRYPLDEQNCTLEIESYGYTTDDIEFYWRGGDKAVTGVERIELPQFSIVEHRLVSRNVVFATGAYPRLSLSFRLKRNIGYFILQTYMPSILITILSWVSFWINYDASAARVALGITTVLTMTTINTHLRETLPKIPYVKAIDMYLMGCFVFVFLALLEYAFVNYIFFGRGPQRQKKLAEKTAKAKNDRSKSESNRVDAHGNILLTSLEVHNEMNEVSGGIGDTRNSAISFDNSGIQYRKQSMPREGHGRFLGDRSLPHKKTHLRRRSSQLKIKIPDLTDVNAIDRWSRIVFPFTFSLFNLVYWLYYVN
UniProt O55242, whole entry: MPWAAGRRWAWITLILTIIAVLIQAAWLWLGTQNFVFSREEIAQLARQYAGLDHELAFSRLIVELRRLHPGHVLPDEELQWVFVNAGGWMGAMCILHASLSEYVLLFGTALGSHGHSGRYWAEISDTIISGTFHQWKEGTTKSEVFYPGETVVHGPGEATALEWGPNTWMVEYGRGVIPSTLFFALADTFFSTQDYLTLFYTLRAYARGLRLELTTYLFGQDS
UniProt P55210, whole entry, looked up: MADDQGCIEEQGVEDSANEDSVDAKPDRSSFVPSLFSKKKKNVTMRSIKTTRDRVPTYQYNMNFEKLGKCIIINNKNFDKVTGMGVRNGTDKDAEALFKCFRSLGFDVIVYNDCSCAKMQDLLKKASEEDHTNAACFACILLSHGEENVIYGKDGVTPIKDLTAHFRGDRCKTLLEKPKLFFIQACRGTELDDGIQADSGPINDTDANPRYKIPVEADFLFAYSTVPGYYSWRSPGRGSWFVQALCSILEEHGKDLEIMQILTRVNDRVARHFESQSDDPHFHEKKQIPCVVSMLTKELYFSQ

| Structure (SMILES) | target or system | test | system | conditions | how to read | quantity | value |
| --- | --- | --- | --- | --- | --- | --- | --- |
| CC(C)C[C@H](NC(=O)CNC(=O)[C@H](CCCNC(=N)N)NC(=O)[C@H](CCCCN)NC(=O)[C@H](CCCCN)NC(=O)[C@H](CCCNC(=N)N)NC(=O)[C@H](CCCNC(=N)N)NC(=O)[C@H](CCCNC(=N)N)NC(=O)c1ccccc1N)C(=O)N[C@@H](CO)C(=O)NCC(=O)N[C@@H](CCC(N)=O)C(=O)NCCNc1ccc([N+](=O)[O-])cc1[N+](=O)[O-] | FURIN | substrate |  | pH 7.0, 37 °C, with: KCl 20 mM |  | Km | 1 µM |
| C[C@H](NC(=O)[C@H](CCC(N)=O)NC(=O)CCNC(=O)Cc1cc(=O)oc2cc(N)ccc12)C(=O)N[C@@H](CO)C(=O)N[C@H](C(=O)N[C@@H](CC(=O)O)C(=O)N[C@@H](C)C(=O)NCC(=O)N[C@H](C(=O)N[C@@H](C)C(=O)NCC(=O)N[C@@H](CCCCNc1ccc([N+](=O)[O-])cc1[N+](=O)[O-])C(N)=O)[C@@H](C)O)[C@@H](C)O | Caspase-3 (CASP3, Homo sapiens, UniProt P42574) | substrate |  | pH 7.2 |  | Km | 16.2 µM |
| CC[C@H](C)[C@@H]1NC(=O)[C@H](CCC(=O)O)NC(=O)[C@@H]2CCCN2C(=O)[C@H](Cc2c[nH]cn2)NC(=O)[C@H](CCCNC(=N)N)NC(=O)[C@H](C(C)C)NC(=O)[C@H](CC(N)=O)NC(=O)[C@@H]2CSSC[C@H](NC(=O)CN)C(=O)N[C@@H](CSSC[C@@H](C(N)=O)NC1=O)C(=O)N[C@@H](CO)C(=O)N[C@@H](Cc1c[nH]cn1)C(=O)N1CCC[C@H]1C(=O)N[C@@H](C(C)C)C(=O)N2 | CHRNA1/Acetylcholine receptor subunit epsilon/Acetylcholine receptor subunit delta, with beta1 subunit (Homo sapiens, UniProt P02708+Q04844+Q07001) | ion current, antagonist |  | 10 µM | baseline: untreated control | remaining ACh response | 93 ± 10% |
| CC[C@H](C)[C@H](NC(=O)[C@H](C)NC(=O)[C@H](CCCNC(=N)N)NC(=O)[C@H](CCCNC(=N)N)NC(=O)[C@H](CO)NC(=O)[C@H](CCCNC(=N)N)NC(=O)CNC(=O)[C@H](CO)NC(=O)c1ccccc1N)C(=O)N[C@@H](CC(=O)O)C(=O)N[C@@H](CC(C)C)C(=O)N[C@@H](CCC(N)=O)C(=O)NCCNc1ccc([N+](=O)[O-])cc1[N+](=O)[O-] | FURIN | substrate |  | pH 7 |  | kcat | 4.7 s⁻¹ |
| CCOC(=O)c1cncn1C(C)c1cc(OC)cc(OC)c1 (stereo not drawn) | GABA-A receptor; alpha-1/beta-3/gamma-2 (Homo sapiens, UniProt P14867+P18507+P28472) | GABA current potentiation, positive allosteric modulator, two-electrode voltage clamp | Xenopus oocytes | with: EC5 GABA | baseline: 1 mM GABA response | maximal current | 11% |
| CC[C@H](C)[C@H](NC(=O)[C@H](C)NC(=O)[C@H](CCCNC(=N)N)NC(=O)[C@H](CCCNC(=N)N)NC(=O)[C@H](CO)NC(=O)[C@H](CCCNC(=N)N)NC(=O)CNC(=O)[C@H](CO)NC(=O)c1ccccc1N)C(=O)N[C@@H](CC(=O)O)C(=O)N[C@@H](CC(C)C)C(=O)N[C@@H](CCC(N)=O)C(=O)NCCNc1ccc([N+](=O)[O-])cc1[N+](=O)[O-] | FURIN | substrate |  | pH 7 |  | Km | 0.39 µM |
| CC(C)C[C@H](NC(=O)[C@H](CO)NC(=O)[C@H](CCCNC(=N)N)NC(=O)[C@H](CCCCN)NC(=O)[C@H](CCCCN)NC(=O)[C@H](CCCNC(=N)N)NC(=O)[C@H](CCCNC(=N)N)NC(=O)[C@H](CCCNC(=N)N)NC(=O)c1ccccc1N)C(=O)N[C@@H](Cc1ccccc1)C(=O)NCC(=O)N[C@@H](CCC(N)=O)C(=O)NCCNc1ccc([N+](=O)[O-])cc1[N+](=O)[O-] | FURIN | substrate |  | pH 7.0, 37 °C, with: KCl 20 mM |  | Km | 0.95 µM |
| N#Cc1c(-c2ccc(Cl)cc2Cl)n(-c2nc(-c3ccc(Cl)cc3)c3c(NC(=O)c4ccccc4)nnc-3[nH]2)[nH]c1=O | SK-MEL-5 | SRB |  |  |  | CC50 | > 100 µM |
| CC(C)C[C@H](NC(=O)[C@H](Cc1ccccc1)NC(=O)CNC(=O)CNC(=O)[C@@H](N)Cc1ccc(O)cc1)C(=O)O | neuron-specific aminopeptidase, rat | substrate |  | MW 110 kDa |  | kcat | 3.24 s⁻¹ |
| COC(=O)[C@H]1[C@@H](OC(=O)c2ccccc2)C[C@@H]2CC[C@H]1N2C | Sigma non-opioid intracellular receptor 1 (Sigmar1, Mus musculus, UniProt O55242) | radioligand binding, displacement | CD-1 mouse, whole brain | intraperitoneal, 100 µmol/kg, 30 min after radioligand |  | inhibition | 37% |
| CC(C)C[C@H](NC(=O)CNC(=O)[C@H](CCCNC(=N)N)NC(=O)[C@H](CCCCN)NC(=O)[C@H](CCCCN)NC(=O)[C@H](CCCNC(=N)N)NC(=O)[C@H](CCCNC(=N)N)NC(=O)[C@H](CCCNC(=N)N)NC(=O)[C@H](CCC(=O)O)NC(=O)[C@H](CCCNC(=N)N)NC(=O)c1ccccc1N)C(=O)N[C@@H](Cc1ccccc1)C(=O)NCC(=O)N[C@@H](CCC(N)=O)C(=O)NCCNc1ccc([N+](=O)[O-])cc1[N+](=O)[O-] | FURIN | substrate |  | pH 7 |  | Km | 0.1 µM |
| CC(C)[C@H](NC(=O)CNC(=O)[C@H](CCC(=O)O)NC(=O)[C@@H](NC(=O)[C@H](CCC(=O)O)NC(=O)[C@H](CC(=O)O)NC(=O)CCNC(=O)Cc1cc(=O)oc2cc(N)ccc12)C(C)C)C(=O)N[C@@H](CCCCNc1ccc([N+](=O)[O-])cc1[N+](=O)[O-])C(=O)N[C@@H](CC(=O)O)C(N)=O | Caspase-7 (CASP7, Homo sapiens, UniProt P55210) | substrate |  | pH 7.2 |  | Km | 15.7 µM |

Repeated from above:
| Structure (SMILES) | target or system | test | system | conditions | how to read | quantity | value |
| --- | --- | --- | --- | --- | --- | --- | --- |
| CC(C)C[C@H](NC(=O)[C@H](Cc1ccccc1)NC(=O)CNC(=O)CNC(=O)[C@@H](N)Cc1ccc(O)cc1)C(=O)O | neuron-specific aminopeptidase, rat | substrate |  | MW 110 kDa |  | kcat | 3.24 s⁻¹ |
| N#Cc1c(-c2ccc(Cl)cc2Cl)n(-c2nc(-c3ccc(Cl)cc3)c3c(NC(=O)c4ccccc4)nnc-3[nH]2)[nH]c1=O | SK-MEL-5 | SRB |  |  |  | CC50 | > 100 µM |
